{"data": "Experimental data of several laboratories", "technique": "steady-state kinetics", "B1": "UGT1A9 (Homo sapiens, UniProt O60656); chain GKLLVVPMDGSHWFTMRSVVEKLILRGHEVVVVMPEVSWQLGRSLNCTVKTYSTSYTLEDLDREFKAFAHAQWKAQVRSIYSLLMGSYNDIFDLFFSNCRSLFKDKKLVEYLKESSFDAVFLDPFDNCGLIVAKYFSLPSVVFARGILCHYLEEGAQCPAPLSYVPRILLGFSDAMTFKERVRNHIMHLEEHLLCHRFFKNALEIASEILQTPVTEYDLYSHTSIWLLRTDFVLDYPKPVMPNMIFIGGINCHQGKPLPMEFEAYINASGEHGIVVFSLGSMVSEIPEKKAMAIADALGKIPQTVLWRYTGTRPSNLANNTILVKWLPQNDLLGHPMTRAFITHAGSHGVYESICNGVPMVMMPLFGDQMDNAKRMETKGAGVTLNVLEMTSEDLENALKAVINDKSYKENIMRLSSLHKDRPVEPLDLAVFWVEFVMRHKGAPHLRPAAHDLTWYQYHSLDVIGFLLAVVLTVAFITFKCCAYGYRKCLGKKGRVKKAHKSKTH", "B2": "enzyme S146A (Schizosaccharomyces pombe, UniProt Q9Y7P0); chain MFTGLVEAIGVVKDVQGTIDNGFAMKIEAPQILDDCHTGDSIAVNGTCLTVTDFDRYHFTVGIAPESLRLTNLGQCKAGDPVNLERAVLSSTRMGGHFVQGHVDTVAEIVEKKQDGEAIDFTFRPRDPFVLKYIVYKGYIALDGTALTITHVDDSTFSIMMISYTQSKVIMAKKNVGDLVNVEVDQIGKYTEKLVEAHIADWIKKTQA", "B3": "enzyme (Sphingopyxis macrogoltabida, UniProt D2D3B2); chain MANGTRQKDLRERAERVIPGGMYGHESTRLLPPEFPQFFRRALGARIWDADEQPYIDYMCAYGPNLLGYRQSEIEAAADAQRLLGDTMTGPSEIMVNLAEAFVGMVRHADWAMFCKNGSDATSTAMVLARAHTGRKTILCAKGAYHGASPWNTPHTAGILASDRVHVAYYTYNDAQSLSDAFKAHDGDIAAVFATPFRHEVFEDQALAQLEFARTARKCCDETGALLVVDDVRAGFRVARDCSWTHLGIEPDLSCWGKCFANGYPISALLGSNKARDAARDIFVTGSFWFSAVPMAAAIETLRIIRETPYLETLIASGAALRAGLEAQSQRHGLELKQTGPAQMPQIFFADDPDFRIGYAWAAACLKGGVYVHPYHNMFLSAAHTVDDVTETLEATDRAFSAVLRDFASLQPHPILMQLAGA", "B4": "Mj-MAT W387F/Y233W (Methanocaldococcus jannaschii, UniProt Q58605); chain MRNIIVKKLDVEPIEERPTEIVERKGLGHPDSICDGIAESVSRALCKMYMEKFGTILHHNTDQVELVGGHAYPKFGGGVMVSPIYILLSGRATMEILDKEKNEVIKLPVGTTAVKAAKEYLKKVLRNVDVDKDVIIDCRIGQGSMDLVDVFERQKNEVPLANDTSFGVGYAPLSTTERLVLETERFLNSDELKNEIPAVGEDIKVMGLREGKKITLTIAMAVVDRYVKNIEEWKEVIEKVRKKVEDLAKKIADGYEVEIHINTADDYERESVYLTVTGTSAEMGDDGSVGRGNRVNGLITPFRPMSMEAASGKNPVNHVGKIYNILANLIANDIAKLEGVKECYVRILSQIGKPINEPKALDIEIITEDSYDIKDIEPKAKEIANKFLDNIMEVQKMIVEGKVTTF", "B5": "ycjS (Escherichia coli, UniProt P77503); chain MKSAMTSSPLRVAIIGAGQVADKVHASYYCTRNDLELVAVCDSRLSQAQALAEKYGNASVWDDPQAMLLAVKPDVVSVCSPNRFHYEHTLMALEAGCHVMCEKPPAMTPEQAREMCDTARKLGKVLAYDFHHRFALDTQQLREQVTNGVLGEIYVTTARALRRCGVPGWGVFTNKELQGGGPLIDIGIHMLDAAMYVLGFPAVKSVNAHSFQKIGTQKSCGQFGEWDPATYSVEDSLFGTIEFHNGGILWLETSFALNIREQSIMNVSFCGDKAGATLFPAHIYTDNNGELMTLMQREIADDNRHLRSMEAFINHVQGKPVMIADAEQGYIIQQLVAALYQSAETGTRVEL", "B6": "vioC (Streptomyces vinaceus, UniProt Q6WZB0); chain MTESPTTHHGAAPPDSVATPVRPWSEFRLTPAEAAAAAALAARCAQRYDETDGPEFLLDAPVIAHELPRRLRTFMARARLDAWPHALVVRGNPVDDAALGSTPVHWRTARTPGSRPLSFLLMLYAGLLGDVFGWATQQDGRVVTDVLPIKGGEHTLVSSSSRQELGWHTEDAFSPYRADYVGLLSLRNPDGVATTLAGVPLDDLDERTLDVLFQERFLIRPDDSHLQVNNSTAQQGRVEFEGIAQAADRPEPVAILTGHRAAPHLRVDGDFSAPAEGDEEAAAALGTLRKLIDASLYELVLDQGDVAFIDNRRAVHGRRAFQPRYDGRDRWLKRINITRDLHRSRKAWAGDSRVLGQR", "B7": "protein (Trypanosoma brucei, UniProt Q382C3); chain MKRSVSKVWLNEDTPNDPYPLYAPSPLPPKRPGTIRVWVDGCFDMLHFGHANALRQARSMGDELFVGCHTDEEIIRHKGPPSMRQEERYEALRACKWVDAVIEGYPYVTRVEDMKRFEVDFVVHGDDISVDLNGRNSYQAIIDAGMFKAVRRTECISTTDLVGRMLLCVPSELLSDADKKLLDSEVARKRGPHYLTTSRKIAQFSNKLAPPVGATVVYVDGAFDLFHAGHIRFLQKARALGDYLIVGIHDDQLVRESKGEHFPIMSLNERALGVLSCRYVDDVVFGAPRGVTQEMIKILDIKIVACGTSSETRNCKGAFDVYEVPKSLNLFKVVESGSDLSTDMIVERVVKNHVVLLERQFLKHMKDSEAELRKPDVYRNVREV", "B8": "enzyme (Acinetobacter baumannii, UniProt D0CBC8); chain MALVLDGRALAKQIEENLLVRVEALKAKTGRTPILATILVGDDGASATYVRMKGNACRRVGMDSLKIELPQETTTEQLLAEIEKLNANPDVHGILLQHPVPAQIDERACFDAISLAKDVDGVTCLGFGRMAMGEAAYGSATPAGIMTILKENNIEIAGKHAVVVGRSAILGKPMAMMLLQANATVTICHSRTQNLPELVKQADIIVGAVGKAELIQKDWIKQGAVVVDAGFHPRDGGGVGDIQLQGIEEIASAYTPVPGGVGPMTITTLIRQTVEAAEKALG", "B9": "GSH1 R403E (Arabidopsis thaliana, UniProt P46309); chain AASPPTEEAVVATEPLTREDLIAYLASGCKTKDKYRIGTEHEKFGFEVNTLRPMKYDQIAELLNGIAERFEWEKVMEGDKIIGLKQGKQSISLEPGGQFELSGAPLETLHQTCAEVNSHLYQVKAVAEEMGIGFLGIGFQPKWRREDIPIMPKGRYDIMRNYMPKVGTLGLDMMLRTCTVQVNLDFSSEADMIRKFRAGLALQPIATALFANSPFTEGKPNGFLSMRSHIWTDTDKDRTGMLPFVFDDSFGFEQYVDYALDVPMYFAYRKNKYIDCTGMTFRQFLAGKLPCLPGELPSYNDWENHLTTIFPEVRLKRYLEMRGADGGPWERLCALPAFWVGLLYDDDSLQAILDLTADWTPAEREMLRNKVPVTGLKTPFRDGLLKHVAEDVLKLAKDGLERRGYKEAGFLNAVDEVVRTGVTPAEKLLEMYNGEWGQSVDPVFEELLY", "B10": "rebH G112S/K145M/M71V/N467T/N470S/S2P (Lentzea aerocolonigenes, UniProt Q8KHZ8); chain MPGKIDKILIVGGGTAGWMAASYLGKALQGTADITLLQAPDIPTLGVGEATIPNLQTAFFDFLGIPEDEWVRECNASYKVAIKFINWRTAGEGTSEARELDGGPDHFYHSFSLLKYHEQIPLSHYWFDRSYRGKTVEPFDYACYMEPVILDANRSPRRLDGSKVTNYAWHFDAHLVADFLRRFATEKLGVRHVEDRVEHVQRDANGNIESVRTATGRVFDADLFVDCSGFRGLLINKAMEEPFLDMSDHLLNDSAVATQVPHDDDANGVEPFTSAIAMKSGWTWKIPMLGRFGTGYVYSSRFATEDEAVREFCEMWHLDPETQPLNRIRFRVGRNRRAWVGNCVSIGTSSCFVEPLESTGIYFVYAALYQLVKHFPDKSLNPVLTARFNREIETMFDDTRDFIQAHFYFSPRTDTPFWRANKELRLADGMQEKIDMYRAGMAINAPASDDAQLYYGNFEEEFRNFWTNSSYYCVLAGLGLVPDAPSPRLAHMPQATESVDEVFGAVKDRQRNLLETLPSLHEFLRQQHGR", "note": "Lines come from different studies, so protocols differ."}
{"Substance": "B1 (UGT1A9)", "substrate": "O=c1c(O)c(-c2ccccc2O)oc2ccccc12", "setting": "pH 7.4, 37 °C", "Km [µM]": 0.67}
{"Substance": "putA (Bradyrhizobium diazoefficiens, UniProt Q89E26)", "substrate": "O=C(O)[C@@H]1CCC=N1", "setting": "pH 7.5, 23 °C", "Km [µM]": 420}
{"Substance": "B2 (enzyme S146A)", "substrate": "Cc1nc2c(=O)[nH]c(=O)nc-2n(C[C@H](O)[C@H](O)[C@H](O)CO)c1C", "setting": "pH 7.2, 37 °C, apparent", "Km [µM]": 3.8}
{"Substance": "B3 (enzyme)", "substrate": "O=C(O)CC(=O)C(=O)O", "setting": "pH 7.4, 25 °C", "Km [µM]": 4150}
{"Substance": "B4 (Mj-MAT W387F/Y233W)", "substrate": "CSCC[C@H](N)C(=O)O", "setting": "55 °C, together with: ATP 2.5 mM, methionine 0.05-1 mM", "Km [µM]": 470}
{"Substance": "B5 (ycjS)", "substrate": "CO[C@@H]1O[C@H](CO)[C@@H](O)[C@H](O)[C@H]1O", "setting": "pH 8, 30 °C, together with: NAD+ 2.0 mM", "Km [µM]": 2000}
{"Substance": "B6 (vioC)", "substrate": "N=C(N)NOCC[C@H](N)C(=O)O", "setting": "pH 8, 30 °C, together with: alpha-ketoglutarate 1.0 mM", "Km [µM]": 1160}
{"Substance": "B7 (protein)", "substrate": "Nc1ccn([C@@H]2O[C@H](COP(=O)(O)OP(=O)(O)OP(=O)(O)O)[C@@H](O)[C@H]2O)c(=O)n1", "setting": "pH 7.5, together with: ethanolamine-phosphate 0.1 mM", "Km [µM]": 12.7}
{"Substance": "B8 (enzyme)", "substrate": "NC(=O)c1ccc[n+]([C@@H]2O[C@H](COP(=O)(O)OP(=O)(O)OC[C@H]3O[C@@H](n4cnc5c(N)ncnc54)[C@H](OP(=O)(O)O)[C@@H]3O)[C@@H](O)[C@H]2O)c1", "setting": "pH 7.3, 27 °C, cofactor varied", "Km [µM]": 71.9}
{"Substance": "B9 (GSH1 R403E)", "substrate": "Nc1ncnc2c1ncn2[C@@H]1O[C@H](COP(=O)(O)OP(=O)(O)OP(=O)(O)O)[C@@H](O)[C@H]1O", "setting": "pH 7", "Km [µM]": 1160}
{"Substance": "B10", "substrate": "c1ccc2c3c([nH]c2c1)CNCC3", "setting": "together with: cofactor regeneration", "Km [µM]": 8.6}
{"note": "For quick reference, copied from above:"}
{"Substance": "B5 (ycjS)", "substrate": "CO[C@@H]1O[C@H](CO)[C@@H](O)[C@H](O)[C@H]1O", "setting": "pH 8, 30 °C, together with: NAD+ 2.0 mM", "Km [µM]": 2000}
